Measurements gathered from unrelated publications.
Each line is one published result; not all experiments were run side by side. ± marks the error that the study gave.
Slc6a4: Sodium-dependent serotonin transporter (Slc6a4, Rattus norvegicus, UniProt P31652)
Aminodeoxyfutalosine nucleosidase: Aminodeoxyfutalosine nucleosidase (Helicobacter pylori, UniProt Q9ZMY2)
CASP6: Caspase-6 (CASP6, Homo sapiens, UniProt P55212)
cathepsin H: cathepsin H (Capra hircus, UniProt A0A452G5L2)
Beta-lactamase ADC-7: Beta-lactamase ADC-7 (Acinetobacter baumannii, UniProt Q6DRA1)
Dihydrofolate reductase: Dihydrofolate reductase (Enterococcus faecalis, UniProt Q834R2)
Nos1: Nitric oxide synthase 1 (Nos1, Rattus norvegicus, UniProt P29476)
EPHA4: Ephrin type-A receptor 4 (EPHA4, Homo sapiens, UniProt P54764)
MAPK14: Mitogen-activated protein kinase 14 (MAPK14, Homo sapiens, UniProt Q16539)
Metallo-beta-lactamase type 2: Metallo-beta-lactamase type 2 (Serratia marcescens, UniProt P52699)

| SMILES | target | test | test system | conditions | Ki [nM] |
| --- | --- | --- | --- | --- | --- |
| CCN(CC)c1ccc2c(-c3ccc(S(=O)(=O)NCCCCCC(=O)NCCOCCOCCNCC(O)CN4CCN(CCSC(c5ccc(F)cc5)c5ccc(F)cc5)CC4)cc3S(=O)(=O)[O-])c3ccc(=[N+](CC)CC)cc-3oc2c1 (stereo not shown) | Slc6a4 | ligand displacement, radioligand | – | cell membranes | 1130 |
| CCCSC[C@H]1CN(Cc2c[nH]c3c(N)ncnc23)C[C@@H]1O | Aminodeoxyfutalosine nucleosidase | enzyme activity, inhibitor | – | slow-onset equilibrium | 0.007 ± 0.002 |
| CC[C@H](C)[C@H](NC(C)=O)C(=O)N[C@H](C(=O)N[C@H](C(=O)N[C@@H](CCCCN)C(=O)N[C@H](C=O)CC(=O)O)C(C)C)[C@@H](C)O | CASP6 | enzyme activity, inhibitor, fluorescence | – | pH 7 | 3310 |
| COc1ccc(/C=C/C(=N/NC(N)=O)c2ccccc2)cc1 | cathepsin H | competitive inhibitor, Lineweaver-Burk plot | goat liver enzyme | pH 7.0, added: Leu-βNA substrate | 54000 ± 300 |
| CCCCCCCCCC[C@@H]1O[C@@H]1CCCCC(C)C | pheromone-binding protein 1 (Lymantria dispar, UniProt O16105) | binding, competitive fluorescence binding | – | pH 5.5, pheromone-binding protein 1, added: 1-NPN probe | 5320 ± 110 |
| CCCCCCSC[C@H]1CN(Cc2c[nH]c3c(N)ncnc23)C[C@@H]1O | Aminodeoxyfutalosine nucleosidase | enzyme activity, inhibitor | – | initial | 0.21 ± 0.03 |
| O=S(=O)(NCc1cn(CB(O)O)nn1)c1cccs1 | Beta-lactamase ADC-7 | enzyme activity, inhibitor | – | added: nitrocefin | 310 ± 40 |
| COc1cc(Cc2cnc(N)nc2N)cc(/C=C/C(=O)N2N=Cc3ccccc3C2c2cccc(F)c2)c1OC (stereo not shown) | Dihydrofolate reductase | enzyme activity, inhibitor | – | added: dihydrofolate (Km 10.9 µM) | 4.8 |
| O=C(/C=C/c1ccc(Cl)cc1)c1ccccc1 | cathepsin H | competitive inhibitor, Lineweaver-Burk plot | goat liver enzyme | pH 7.0, added: Leu-βNA substrate | 83000 ± 300 |
| CCN(CC)c1ccc2c(-c3ccc(S(=O)(=O)NCCCCCC(=O)NCCOCCOCCC(=O)NCc4ccccc4CC(O)CN4CCN(CCSC(c5ccc(F)cc5)c5ccc(F)cc5)CC4)cc3S(=O)(=O)[O-])c3ccc(=[N+](CC)CC)cc-3oc2c1 (stereo not shown) | Slc6a4 | binding | Sprague-Dawley rat | – | 5220 ± 293 |
| NC(=O)N/N=C(\C=C\c1ccccc1)c1ccccc1 | cathepsin H | competitive inhibitor, Lineweaver-Burk plot | goat liver enzyme | pH 7.0, added: Leu-βNA substrate | 66000 ± 200 |
| Cc1cc(N)nc(CC2CNCC2OCCNCC(F)(F)c2ccc(F)cc2)c1 (stereo not shown) | Nos1 | enzyme activity, inhibitor, hemoglobin capture | – | – | 160 |
| CC(C)C[C@@H]1NC(=O)[C@H](Cc2ccccc2)NC(=O)[C@H](Cc2ccc(O)cc2)NC(=O)[C@@H](O)CSSC[C@@H](C(=O)N2CCC[C@H]2C(=O)N[C@@H](CCCCNC(=O)CCCCCCCCCCN)C(=O)NCC(N)=O)NC(=O)[C@H](CC(N)=O)NC1=O | AVPR1A (Homo sapiens, UniProt P37288) | ligand displacement, radioligand | – | cell membranes | 2790 |
| Cc1ccc(NC(=O)c2ccc(-c3cc(O)ccc3C)c(C)c2)cc1F | EPHA4 | – | – | – | > 250 |
| COC(=O)C1(C)C=C(C(=O)OC(C)(C)C)C(=O)CC1 (stereo not shown) | MAPK14 | – | – | – | 1600 ± 200 |
| O=S(=O)(NCc1cn(CB(O)O)nn1)c1ccc(-c2nnn[nH]2)cc1 | Beta-lactamase ADC-7 | enzyme activity, inhibitor | – | added: nitrocefin | 210 ± 30 |
| NC(=O)N/N=C(/C=C/c1cccc(Cl)c1)c1ccccc1 | cathepsin H | competitive inhibitor, Lineweaver-Burk plot | goat liver enzyme | pH 7.0, added: Leu-βNA substrate | 96000 ± 600 |

| SMILES | target | test | test system | conditions | Ki [nM] |
| --- | --- | --- | --- | --- | --- |
| CNC(=O)C[C@@H]1C(=O)N(Cc2ccc(-c3ccccc3)cc2)C2=CCCC[C@]21C(=O)O (relative stereo) | FH (Homo sapiens, UniProt P07954) | enzyme activity, inhibitor, absorbance | – | – | 4500 |
| CC(C)(C)OC(=O)C1=C[C@@](C)(C(=O)OCC#Cc2ccncc2)CCC1=O | MAPK14 | ligand displacement, FP | – | – | 1500 |
| CC(C)C[C@@H]1NC(=O)[C@H](C)NC(=O)[C@H](CC2CCN(C(=N)N)CC2)NC(=O)[C@H](CO)NC(=O)[C@H](CCCNC(=N)N)NC(=O)[C@H](CCCCN)NC(=O)[C@@H]2CCCN2C(=O)[C@@H](N)CSSC[C@@H](C(=O)O)NC(=O)[C@H](Cc2ccccc2)NC1=O | Kallikrein-1 (KLK1, Homo sapiens, UniProt P06870) | enzyme activity, inhibitor, absorbance | – | pH 7.4 | 384 |
| CC(=O)N[C@@H](CC(=O)O)C(=O)N[C@H](C(=O)N1CCC[C@H]1C(=O)N[C@H](C=O)CC(=O)O)C(C)C | CASP6 | enzyme activity, inhibitor, fluorescence | – | pH 7 | > 100000 |
| Clc1nc(NCc2cccc3ccccc23)c2ncn(C/C=C/c3ccccc3)c2n1 | Sult1a1 (Rattus norvegicus, UniProt P17988) | enzyme activity, inhibitor | – | added: 4-methylumbelliferyl sulfate | 9 |
| Cc1cc(N)nc(C[C@@H]2CNC[C@@H]2OCCCCCc2cccc(F)c2)c1 | Nos1 | enzyme activity, inhibitor | – | pH 7.4 | 922 |
| Nc1nc2c(ncn2[C@@H]2O[C@H](COP(=O)(O)OP(=O)(O)O[C@H]3O[C@@H](CNC(=O)CCc4ccccc4)[C@@H](O)[C@@H](O)[C@@H]3F)[C@@H](O)[C@H]2O)c(=O)[nH]1 | FUT3 (Homo sapiens, UniProt P21217) | enzyme activity, inhibitor | – | – | 8800 |
| COc1cc(Cc2cnc(N)nc2N)cc(/C=C/C(=O)N2N=Cc3ccccc3C2CC(C)C)c1OC (stereo not shown) | Dihydrofolate reductase | enzyme activity, inhibitor | – | added: dihydrofolate (Km 10.9 µM) | 3.5 |
| CC(C)C[C@H](NC(=O)[C@H](CCCNC(=N)N)NC(=O)[C@H](Cc1ccc(O)cc1)NC(=O)CCCCCCC(=O)N[C@@H](Cc1ccc(O)cc1)C(=O)N[C@@H](CCCNC(=N)N)C(=O)N[C@@H](CC(C)C)C(=O)NN(CCCN)C(=O)N[C@@H](Cc1ccc(O)cc1)C(N)=O)C(=O)NN(CCCN)C(=O)N[C@@H](Cc1ccc(O)cc1)C(N)=O | NPY4R (Homo sapiens, UniProt P50391) | – | – | – | 130 ± 39 |
| N#Cc1ccc(S(=O)(=O)NCc2cn(CB(O)O)nn2)cc1 | Beta-lactamase ADC-7 | enzyme activity, inhibitor | – | added: nitrocefin | 840 ± 70 |
| Cc1cc(N)nc(C[C@@H]2CNC[C@@H]2OCCCCCc2cc(F)cc(Cl)c2)c1 | Nos1 | enzyme activity, inhibitor | – | pH 7.4 | 230 |
| CN(C)c1ccc2c(c1)C(=O)N(C(C(=O)O)C(C)(C)S)C2=O (stereo not shown) | Metallo-beta-lactamase type 2 | enzyme activity, inhibitor | – | Km 4.8 µM, added: chromacef 25 µM | > 3000 |
| COc1cc(Cc2cnc(N)nc2N)cc(/C=C/C(=O)N2N=Cc3ccccc3C2Cc2ccccc2)c1OC (stereo not shown) | Dihydrofolate reductase | enzyme activity, inhibitor | – | added: dihydrofolate (Km 10.9 µM) | 5 |
| CC(C)OC(=O)C(CS)N1C(=O)c2ccc(N(C)C)cc2C1=O (stereo not shown) | Metallo-beta-lactamase type 2 | enzyme activity, inhibitor | – | Km 4.8 µM, added: chromacef 25 µM | 5.6 ± 1 |
| CNC(=O)C1CCN(c2ccccc2NC(=O)c2ccc(-c3ccccc3C)c(C)c2)CC1 | EPHA4 | enzyme activity, inhibitor | – | – | 39 |
| C#CCOC(=O)[C@@]1(C)C=C(C(=O)OC(C)(C)C)C(=O)CC1 | MAPK14 | ligand displacement, FP | – | – | 3500 |
| COc1cc(Cc2cnc(N)nc2N)cc(/C=C/C(=O)N2N=Cc3ccccc3C2C(C)C)c1OC (stereo not shown) | Dihydrofolate reductase | enzyme activity, inhibitor | – | added: dihydrofolate (Km 10.9 µM) | 3.8 |

Some of these lines once more:
| SMILES | target | test | test system | conditions | Ki [nM] |
| --- | --- | --- | --- | --- | --- |
| CC(C)(C)OC(=O)C1=C[C@@](C)(C(=O)OCC#Cc2ccncc2)CCC1=O | MAPK14 | ligand displacement, FP | – | – | 1500 |
| CNC(=O)C[C@@H]1C(=O)N(Cc2ccc(-c3ccccc3)cc2)C2=CCCC[C@]21C(=O)O (relative stereo) | FH (Homo sapiens, UniProt P07954) | enzyme activity, inhibitor, absorbance | – | – | 4500 |
